Measurements gathered from unrelated publications.
A part holds a random share of what one study measured. Substitutions count along the parent as printed.

Study 1
Target: Histone acetyltransferase KAT6A, winged helix 2, GST fusion (KAT6A, Homo sapiens, UniProt Q92794, residues 85-181)
Technique: protein binding microarray
Molecule type: double-stranded DNA, one strand shown
Matrix: in vitro
Tested at: not given
Notes: 8-mer, flanks averaged, mean of 2 arrays, mostly near background
Reference: not given
Direction: higher = stronger binding
Measurement: E-score
Residues (chain): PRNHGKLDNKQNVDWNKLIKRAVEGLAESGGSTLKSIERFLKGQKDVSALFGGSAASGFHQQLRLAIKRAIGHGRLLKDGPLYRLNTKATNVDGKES
Strand = CCAGCGCC; result = 0.0274
Strand = ATGACCAT; result = -0.0863
Strand = AATGCCCG; result = -0.069
Strand = ACTCGGTA; result = -0.168
Strand = CGACTAAA; result = -0.211
Strand = CAAAGCGA; result = 0.129
Strand = ATGATTCG; result = 0.00797
Strand = TCACATGA; result = -0.125
Strand = ACGTCAGC; result = 0.0424
Strand = CGGTAGTA; result = -0.112
Strand = ACTGTGGC; result = -0.108
Strand = CAAAACGG; result = 0.101
Strand = AAAAGGGT; result = -0.0972
Strand = GACCCACC; result = 0.00891
Strand = GTGCAACA; result = -0.047
Strand = GGGGGGCA; result = -0.0318
Strand = ATGGAACC; result = -0.0689
Strand = ATGTTCGA; result = 0.0292
Strand = CTCCTGCC; result = 0.153
Strand = CGAACTCG; result = 0.133
Strand = AGCGGACA; result = -0.0587

Study 2
Target: CCNA1, cyclin fold, Cln2 fusion (human)
Technique: yeast growth competition, sequencing
Matrix: yeast
Notes: weak parent motif
Reference: not given
Direction: higher = stronger binding
Measurement: normalised enrichment score
Starting sequence: CDKN1A docking peptide (human); SKACRRLFGPVDS; partner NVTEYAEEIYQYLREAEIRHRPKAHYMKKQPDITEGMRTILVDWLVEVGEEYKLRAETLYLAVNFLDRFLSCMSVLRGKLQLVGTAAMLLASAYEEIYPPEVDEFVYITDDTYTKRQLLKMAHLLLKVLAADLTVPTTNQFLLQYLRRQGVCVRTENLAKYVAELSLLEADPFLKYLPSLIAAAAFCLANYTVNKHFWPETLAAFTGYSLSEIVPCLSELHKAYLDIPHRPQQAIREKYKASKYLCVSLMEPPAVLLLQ
Change = P10W; result = 0.122
Change = K2C; result = 0.0857
Change = P10G; result = 0.383
Change = V11L; result = 0.721
Change = L7G; result = -0.23
Change = K2P; result = 0.639
Change = P10I; result = 0.232
Change = K2F; result = 0.125
Change = C4K; result = 0.624
Change = A3C; result = 0.782
Change = D12H; result = 0.243
Change = R5K F8L; result = 0.166
Change = K2I; result = 0.492
Change = K2V; result = 0.63
Change = F8H; result = 0.236
Change = L7V; result = 0.2
Change = R6Q; result = 0.563
Change = K2H; result = 0.342
Change = L7W; result = 0.153
Change = L7S; result = -0.44
Change = G9T; result = 0.526
Change = G9K; result = 0.524
Change = C4I; result = 0.0564
Change = L7H; result = 0.141
Change = F8A; result = 0.155

Study 3
Target: PABPC1L2, full length, GST fusion (mouse, UniProt A0ABA7IW68)
Technique: RNAcompete
Molecule type: RNA
Matrix: in vitro
Tested at: 20 nM
Notes: 7-mer, probes averaged, single round
Reference: mean of 7-mers
Direction: higher = stronger binding
Measurement: 7-mer Z-score
Residues (chain): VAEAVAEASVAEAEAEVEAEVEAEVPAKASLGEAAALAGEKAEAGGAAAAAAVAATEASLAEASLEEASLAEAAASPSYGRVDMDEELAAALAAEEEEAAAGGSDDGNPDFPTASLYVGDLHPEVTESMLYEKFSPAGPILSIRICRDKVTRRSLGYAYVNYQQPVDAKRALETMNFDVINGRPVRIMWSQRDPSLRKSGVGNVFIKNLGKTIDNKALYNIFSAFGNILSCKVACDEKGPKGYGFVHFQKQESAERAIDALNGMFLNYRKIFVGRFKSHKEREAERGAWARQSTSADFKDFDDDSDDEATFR
Strand = GGUAGAC; result = 0.0569
Strand = CGAAUGG; result = -0.104
Strand = CUAGUUA; result = -0.206
Strand = UGUCCCG; result = -0.32
Strand = AGGUCAG; result = -0.0264
Strand = GGCGAAU; result = 0.0605
Strand = CGAAUCU; result = -0.217
Strand = CUACUAG; result = -0.191
Strand = UAAUCCC; result = -0.345
Strand = GAUUGUC; result = -0.249
Strand = ACGGGAC; result = 0.26
Strand = CGCCGAC; result = -0.282
Strand = CAGAGGG; result = 0.256
Strand = GUACGCC; result = -0.199
Strand = ACAAUUG; result = 0.0551
Strand = UCAAGAC; result = -0.0047
Strand = AAGGGCU; result = 0.387
Strand = CCACAUG; result = -0.311
Strand = CAUGGAG; result = 0.0587
Strand = ACCGGCG; result = -0.15
Strand = GAUAGUG; result = -0.0627
Strand = UUUAGCA; result = -0.119
Strand = AAACAAC; result = 3
Strand = GCCACGC; result = -0.132
Strand = UACUCAA; result = -0.124

Study 4
Target: Sal-like protein 4, full length isoform B (SALL4, Homo sapiens, UniProt Q9UJQ4-2, residues 1-616)
Technique: universal PBM
Molecule type: double-stranded DNA, one strand shown
Matrix: in vitro
Tested at: not given
Notes: 8-mer, flanks averaged, mean of replicates
Direction: higher = stronger binding
Measurement: E-score
Strand = ATGTTGCA; result = 0.142
Strand = ACCGTTAA; result = 0.137
Strand = AAATTTGG; result = 0.106
Strand = CAAAAGAA; result = 0.21
Strand = CGAGTTAC; result = -0.0851
Strand = AGCAGAAT; result = 0.142
Strand = GATGCACC; result = -0.104
Strand = AGAAACTG; result = -0.194
Strand = TAAGATTA; result = 0.214
Strand = TGGACCAA; result = 0.0945
Strand = ATCTGGGG; result = -0.217
Strand = TGACATAA; result = 0.321
Strand = AACTAGGA; result = 0.111
Strand = CAGGAATC; result = 0.00517
Strand = AGCGTCTA; result = -0.0598
Strand = AGCTGCTG; result = -0.19
Strand = TCAGAGGA; result = -0.0396
Strand = CCACGAAC; result = 0.0236
Strand = CGATCACG; result = -0.0581
Strand = AAGGTTTC; result = 0.0117
Strand = AACAGATA; result = 0.142
Strand = AAATGATA; result = 0.37

Excerpt of the above (study 3):
Strand = GGCGAAU; result = 0.0605
Strand = CGAAUCU; result = -0.217
Strand = CUACUAG; result = -0.191
Strand = UAAUCCC; result = -0.345
Strand = GAUUGUC; result = -0.249
Strand = ACGGGAC; result = 0.26
Strand = CGCCGAC; result = -0.282
Strand = CAGAGGG; result = 0.256
Strand = GUACGCC; result = -0.199
Strand = ACAAUUG; result = 0.0551
Strand = UCAAGAC; result = -0.0047
Strand = AAGGGCU; result = 0.387
Strand = CCACAUG; result = -0.311
Strand = CAUGGAG; result = 0.0587
Strand = ACCGGCG; result = -0.15
Strand = GAUAGUG; result = -0.0627
